Assay results gathered from unrelated publications.
Lines come from different studies, so protocols differ. ± marks the error that the study gave.
Organism: HIV-1

With `CC[C@H](C)[C@H](N)C(=O)N[C@@H](CO)C(=O)N[C@@H](Cc1ccccc1)C(=O)N[C@@H]1CSCc2ccc(cc2)-c2ccc(cc2)CSC[C@@H](C(=O)N[C@@H](CCC(=O)O)C(=O)N[C@@H](CO)C(=O)NCC(=O)N[C@@H](CO)C(N)=O)NC(=O)[C@H](Cc2ccc(O)cc2)NC(=O)[C@H](Cc2ccc(O)cc2)NC(=O)[C@H](CC(=O)O)NC(=O)[C@H](CC(C)C)NC(=O)[C@H](CC(C)C)NC(=O)[C@H](CCC(=O)O)NC1=O` the IC50 was 6.3 ± 0.1 µM (viral entry, single-cycle pseudovirus; Env HIV-26191-2, subtype C).
`CC(=O)[O-].CN1CCCN2CCN(C)CCCN(CC1)CC2.F[P-](F)(F)(F)(F)F.[Co+2]` has an IC50 of greater than 100 µM (viral replication; MT-4, IIIB; 5 d).
`CCCC(C)C1OC(=O)[C@H](C(C)C)N(C)C(=O)[C@H](CO)NC(=O)[C@H]([C@@H](C)C(N)=O)NC(=O)[C@@H]([C@H](C)OC(N)=O)NC(=O)[C@H](O)CNC(=O)/C=C/C=C/CC(O)C1C` (some centres unmarked) has an IC50 of greater than 50 mg/L (neutralization; SF162 Env pseudovirus).
For `COc1ccc2c(c1)OCCCC=CCCCCN(CC(O)C(Cc1ccccc1)NC(=O)OC1COC3OCCC13)S2(=O)=O` (mixture of isomers), the IC50 was 0.055 ± 0.025 µM (viral replication; PHA-stimulated PBMC, MDR/MM R5).
For `CC(=O)N[C@@H](CS)C(=O)N[C@@H](CO)C(=O)N[C@@H](CO)C(=O)N[C@@H](Cc1c[nH]cn1)C(=O)N[C@@H](Cc1ccccc1)C(=O)N1CCC[C@H]1C(=O)N[C@@H](Cc1ccccc1)C(=O)N[C@@H](CO)C(=O)N[C@@H](CCC(N)=O)C(=O)N[C@@H](Cc1ccc(O)cc1)C(=O)N[C@@H](CCC(N)=O)C(=O)N[C@@H](Cc1ccccc1)C(=O)N[C@@H](Cc1ccc(O)cc1)C(=O)N[C@@H](CCCCN)C(N)=O`, the IC50 was 14.1 µM (viral entry; TZM-bl, YU2 (R5) pseudovirus; 48 h).
The IC50 of `CC(=O)[O-].F[P-](F)(F)(F)(F)F.[Co+2].c1ccc(CN2CCCN3CCN(CCCN(Cc4ccccc4)CC3)CC2)cc1` is reported as 1.82 µM (viral replication; MT-4, IIIB; 5 d).
`Cc1nc([C@H](NC(=O)c2ccc(-c3ccc(Cl)cc3)[nH]2)[C@H]2CCCCN2)sc1CO` gave an IC50 of 1.57 µM (viral entry; TZM-bl, panel of 56 Env pseudoviruses).
`CC(C)C[C@@H](N)C(=O)NCC(=O)N[C@H](C)C(=O)N[C@H](CO)C(=O)N[C@H](Cc1c[nH]c2ccccc12)C(=O)N[C@H](Cc1c[nH]cn1)C(=O)N[C@H](CCCNC(=N)N)C(=O)N1CCC[C@@H]1C(=O)N[C@H](CC(=O)O)C(=O)N[C@H](CCCCN)C(=O)N[C@H](CS)C(=O)N[C@H](CS)C(=O)N[C@H](CC(C)C)C(=O)NCC(=O)N[C@H](Cc1ccc(O)cc1)C(=O)N[C@H](CCC(N)=O)C(=O)N[C@H](CCCCN)C(=O)N[C@H](CCCNC(=N)N)C(=O)N1CCC[C@@H]1C(=O)N[C@H](CC(C)C)C(=O)N1CCC[C@@H]1C(N)=O` gave an IC50 of 12.1 ± 3.26 µM (viral replication, β-galactosidase chemiluminescence; HeLa-CD4-LTR-β-gal cells, IIIB; 40 to 48 h).
